Results pooled from the literature.
Compare with care: the assays were run in different laboratories. Positions count from the first letter of the parent shown. ± marks the error that the study gave.
DHX36: DHX36 53-105 (Homo sapiens, UniProt Q9H2U1)
Sequence of UniProt Q9H2U1 (whole entry, looked up): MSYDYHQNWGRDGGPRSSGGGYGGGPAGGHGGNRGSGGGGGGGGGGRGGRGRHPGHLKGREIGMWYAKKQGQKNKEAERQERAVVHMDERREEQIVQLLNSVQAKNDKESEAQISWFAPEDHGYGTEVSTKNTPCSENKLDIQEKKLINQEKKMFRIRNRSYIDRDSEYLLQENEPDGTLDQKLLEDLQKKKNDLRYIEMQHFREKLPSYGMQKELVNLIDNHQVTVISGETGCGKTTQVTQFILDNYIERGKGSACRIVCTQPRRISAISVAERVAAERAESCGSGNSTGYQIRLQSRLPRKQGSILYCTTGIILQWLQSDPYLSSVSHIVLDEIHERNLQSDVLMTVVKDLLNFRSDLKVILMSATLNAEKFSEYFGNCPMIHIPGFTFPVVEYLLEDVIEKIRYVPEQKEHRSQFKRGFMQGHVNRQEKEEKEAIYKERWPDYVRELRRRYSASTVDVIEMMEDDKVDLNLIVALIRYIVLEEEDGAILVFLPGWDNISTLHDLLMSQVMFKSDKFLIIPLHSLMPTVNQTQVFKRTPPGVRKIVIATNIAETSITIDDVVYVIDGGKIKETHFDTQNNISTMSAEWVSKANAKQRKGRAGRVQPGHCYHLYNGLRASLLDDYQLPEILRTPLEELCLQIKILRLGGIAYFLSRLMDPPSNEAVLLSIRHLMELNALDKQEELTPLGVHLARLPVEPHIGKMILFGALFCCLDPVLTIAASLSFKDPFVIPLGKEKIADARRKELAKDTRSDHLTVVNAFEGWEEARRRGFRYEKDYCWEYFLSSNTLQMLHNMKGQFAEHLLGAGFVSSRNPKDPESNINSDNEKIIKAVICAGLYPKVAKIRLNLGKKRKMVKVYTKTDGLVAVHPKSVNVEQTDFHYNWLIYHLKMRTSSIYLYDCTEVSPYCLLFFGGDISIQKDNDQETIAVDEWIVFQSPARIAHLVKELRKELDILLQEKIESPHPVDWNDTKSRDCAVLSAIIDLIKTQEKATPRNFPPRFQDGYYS
YBX1: YBX1 51-140 (Homo sapiens, UniProt P67809)
Sequence of UniProt P67809 (whole entry, looked up): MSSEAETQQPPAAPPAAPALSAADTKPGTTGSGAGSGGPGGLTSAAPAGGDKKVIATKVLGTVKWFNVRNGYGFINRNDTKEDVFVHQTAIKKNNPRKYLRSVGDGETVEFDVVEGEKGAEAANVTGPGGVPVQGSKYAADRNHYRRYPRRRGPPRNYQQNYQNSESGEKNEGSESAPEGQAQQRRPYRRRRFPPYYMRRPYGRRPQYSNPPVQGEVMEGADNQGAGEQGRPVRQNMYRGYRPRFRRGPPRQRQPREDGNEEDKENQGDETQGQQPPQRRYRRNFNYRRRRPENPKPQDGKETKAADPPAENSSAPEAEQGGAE
Putative PAS/PAC sensor protein full length assumed: Putative PAS/PAC sensor protein full length assumed (Nakamurella multipartita, UniProt C8XJT7)
hel308: hel308 1-690 (Methanothermobacter thermautotrophicus, UniProt O26901)
Sequence of UniProt O26901 (whole entry, unmodified, looked up): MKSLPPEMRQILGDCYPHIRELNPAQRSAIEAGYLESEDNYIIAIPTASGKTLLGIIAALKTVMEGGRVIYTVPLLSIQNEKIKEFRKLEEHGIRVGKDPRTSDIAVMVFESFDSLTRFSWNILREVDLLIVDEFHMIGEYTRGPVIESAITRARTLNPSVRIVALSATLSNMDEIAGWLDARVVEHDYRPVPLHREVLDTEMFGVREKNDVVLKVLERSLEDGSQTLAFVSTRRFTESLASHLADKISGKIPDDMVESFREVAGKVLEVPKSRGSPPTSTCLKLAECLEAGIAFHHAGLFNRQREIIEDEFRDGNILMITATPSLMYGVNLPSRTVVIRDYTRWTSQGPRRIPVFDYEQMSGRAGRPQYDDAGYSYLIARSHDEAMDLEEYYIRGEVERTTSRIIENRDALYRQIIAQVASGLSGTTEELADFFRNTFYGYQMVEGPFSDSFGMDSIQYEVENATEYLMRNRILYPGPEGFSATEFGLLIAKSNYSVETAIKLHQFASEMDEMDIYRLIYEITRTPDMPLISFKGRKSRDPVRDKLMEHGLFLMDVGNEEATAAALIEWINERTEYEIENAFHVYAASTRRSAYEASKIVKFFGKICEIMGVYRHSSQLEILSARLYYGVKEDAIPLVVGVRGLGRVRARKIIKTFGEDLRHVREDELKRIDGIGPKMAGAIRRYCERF
P1: JPH2 N-terminal region (Mus musculus); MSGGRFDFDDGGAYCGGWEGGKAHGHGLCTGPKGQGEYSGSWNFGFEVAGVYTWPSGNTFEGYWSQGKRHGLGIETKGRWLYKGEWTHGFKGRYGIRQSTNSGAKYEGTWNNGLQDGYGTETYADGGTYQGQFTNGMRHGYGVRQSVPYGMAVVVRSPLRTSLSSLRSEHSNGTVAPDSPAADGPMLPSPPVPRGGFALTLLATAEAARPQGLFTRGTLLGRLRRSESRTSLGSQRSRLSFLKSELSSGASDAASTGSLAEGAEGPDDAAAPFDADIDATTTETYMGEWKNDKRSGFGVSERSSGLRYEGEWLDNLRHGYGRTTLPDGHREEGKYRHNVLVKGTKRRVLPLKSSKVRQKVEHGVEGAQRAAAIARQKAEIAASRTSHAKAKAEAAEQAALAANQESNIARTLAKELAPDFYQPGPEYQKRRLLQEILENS
Sequence of UniProt P60335 (whole entry, looked up): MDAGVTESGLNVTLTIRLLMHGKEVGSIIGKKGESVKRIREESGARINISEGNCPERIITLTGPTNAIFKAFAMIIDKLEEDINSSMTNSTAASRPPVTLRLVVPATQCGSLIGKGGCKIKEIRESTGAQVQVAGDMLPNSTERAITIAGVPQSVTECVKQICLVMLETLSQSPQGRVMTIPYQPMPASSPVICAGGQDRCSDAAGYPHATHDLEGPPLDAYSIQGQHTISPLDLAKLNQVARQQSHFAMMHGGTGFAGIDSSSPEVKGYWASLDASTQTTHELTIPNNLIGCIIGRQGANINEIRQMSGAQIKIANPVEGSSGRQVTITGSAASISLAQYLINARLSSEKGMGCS
Sequence of UniProt Q6Z312 (whole entry, looked up): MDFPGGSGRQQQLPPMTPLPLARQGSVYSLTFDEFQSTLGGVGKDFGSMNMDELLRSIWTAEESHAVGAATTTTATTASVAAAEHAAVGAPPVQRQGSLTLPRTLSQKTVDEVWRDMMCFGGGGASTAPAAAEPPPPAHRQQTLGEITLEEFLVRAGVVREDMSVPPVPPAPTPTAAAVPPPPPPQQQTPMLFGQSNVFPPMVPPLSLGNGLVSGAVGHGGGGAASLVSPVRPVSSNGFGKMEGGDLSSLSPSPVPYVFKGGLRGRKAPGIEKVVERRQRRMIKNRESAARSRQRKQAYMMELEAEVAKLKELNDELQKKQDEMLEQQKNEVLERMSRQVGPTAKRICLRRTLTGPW
Sequence of UniProt Q9SJQ6 (whole entry, looked up): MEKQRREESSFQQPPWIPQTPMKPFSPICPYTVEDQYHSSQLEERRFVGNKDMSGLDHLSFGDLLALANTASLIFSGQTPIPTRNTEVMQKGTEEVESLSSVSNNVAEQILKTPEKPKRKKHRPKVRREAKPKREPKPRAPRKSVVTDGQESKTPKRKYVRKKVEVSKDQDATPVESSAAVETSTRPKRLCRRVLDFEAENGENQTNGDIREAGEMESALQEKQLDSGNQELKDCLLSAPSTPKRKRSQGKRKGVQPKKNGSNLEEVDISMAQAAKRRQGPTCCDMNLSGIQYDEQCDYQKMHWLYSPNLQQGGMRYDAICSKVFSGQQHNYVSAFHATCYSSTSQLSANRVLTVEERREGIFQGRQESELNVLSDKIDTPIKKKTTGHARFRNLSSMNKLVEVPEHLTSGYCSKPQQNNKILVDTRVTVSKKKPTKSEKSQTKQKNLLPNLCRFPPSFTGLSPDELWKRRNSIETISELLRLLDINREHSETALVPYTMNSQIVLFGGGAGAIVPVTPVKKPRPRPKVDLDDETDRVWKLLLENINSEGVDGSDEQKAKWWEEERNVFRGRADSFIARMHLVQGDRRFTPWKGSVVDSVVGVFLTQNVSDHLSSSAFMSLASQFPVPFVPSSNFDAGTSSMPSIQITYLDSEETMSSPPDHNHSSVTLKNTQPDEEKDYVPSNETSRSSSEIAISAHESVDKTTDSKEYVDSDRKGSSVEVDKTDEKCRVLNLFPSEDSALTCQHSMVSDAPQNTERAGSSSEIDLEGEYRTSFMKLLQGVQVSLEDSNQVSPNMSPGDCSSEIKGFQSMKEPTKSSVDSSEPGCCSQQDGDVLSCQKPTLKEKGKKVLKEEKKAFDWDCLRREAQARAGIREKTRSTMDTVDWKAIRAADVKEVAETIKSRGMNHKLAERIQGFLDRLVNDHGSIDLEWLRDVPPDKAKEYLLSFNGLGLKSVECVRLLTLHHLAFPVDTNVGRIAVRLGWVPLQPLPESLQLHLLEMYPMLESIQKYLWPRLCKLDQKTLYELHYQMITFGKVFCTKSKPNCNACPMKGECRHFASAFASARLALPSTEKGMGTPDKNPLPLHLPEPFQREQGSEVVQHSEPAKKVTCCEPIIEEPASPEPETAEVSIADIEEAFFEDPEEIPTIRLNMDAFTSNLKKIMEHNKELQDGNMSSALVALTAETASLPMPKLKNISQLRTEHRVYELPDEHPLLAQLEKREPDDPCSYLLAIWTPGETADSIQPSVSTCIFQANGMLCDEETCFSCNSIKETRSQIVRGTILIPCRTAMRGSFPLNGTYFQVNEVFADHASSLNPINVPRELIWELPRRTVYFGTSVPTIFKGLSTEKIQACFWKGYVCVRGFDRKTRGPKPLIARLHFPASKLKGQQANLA
Sequence of UniProt Q8GYY1 (whole entry, looked up): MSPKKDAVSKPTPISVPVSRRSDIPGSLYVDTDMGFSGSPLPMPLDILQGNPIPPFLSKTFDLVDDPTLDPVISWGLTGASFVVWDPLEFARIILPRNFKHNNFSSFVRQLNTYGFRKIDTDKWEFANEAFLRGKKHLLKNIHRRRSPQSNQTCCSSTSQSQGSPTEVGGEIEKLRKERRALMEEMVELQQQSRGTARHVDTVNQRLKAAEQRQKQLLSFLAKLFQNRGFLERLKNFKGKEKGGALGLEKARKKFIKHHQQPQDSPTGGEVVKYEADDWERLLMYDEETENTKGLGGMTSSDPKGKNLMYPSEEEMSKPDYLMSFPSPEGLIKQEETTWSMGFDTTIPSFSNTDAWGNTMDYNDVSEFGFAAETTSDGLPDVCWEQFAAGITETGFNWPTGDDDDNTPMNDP
Sequence of UniProt P56270 (whole entry, looked up): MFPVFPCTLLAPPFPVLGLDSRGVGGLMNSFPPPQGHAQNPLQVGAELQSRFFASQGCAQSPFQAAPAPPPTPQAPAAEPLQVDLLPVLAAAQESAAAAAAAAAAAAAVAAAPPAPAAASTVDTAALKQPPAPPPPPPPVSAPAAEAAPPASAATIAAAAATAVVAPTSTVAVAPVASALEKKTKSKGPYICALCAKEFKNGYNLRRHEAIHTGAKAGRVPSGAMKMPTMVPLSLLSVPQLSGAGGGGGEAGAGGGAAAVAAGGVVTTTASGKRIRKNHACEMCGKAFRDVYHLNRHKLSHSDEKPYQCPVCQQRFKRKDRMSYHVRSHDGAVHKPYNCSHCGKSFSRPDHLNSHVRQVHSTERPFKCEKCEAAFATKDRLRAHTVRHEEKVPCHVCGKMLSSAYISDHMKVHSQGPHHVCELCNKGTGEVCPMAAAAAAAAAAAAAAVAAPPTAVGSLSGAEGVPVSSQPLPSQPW

Under binding, `GGGUUGCGGAGGGUGGGC (G-quadruplex RNA (Homo sapiens); G4)` is recorded as “binds” (DHX36; EMSA; folded RNA).
`GCCAATC (ssDNA)` — result for binding: “binds” (YBX1; ITC; single-stranded DNA).
`CGUUGAAGCAGACGACC (structured RNA)`: binding “no binding” (Putative PAS/PAC sensor protein full length assumed; 32P well-retention assay; folded RNA; together with: blue light).
`UUUUCUUUUUUCUUAUUCUUAUU (ssRNA)`: binding “binds” (NAB3 321-415 E397A (Saccharomyces cerevisiae, UniProt P38996); fluorescence anisotropy; RNA).
The Kd of `GGUUUGUUACUGAUAAAGCAGGCAAGACC (ssRNA (Bacillus subtilis); hairpin, two internal loops)` is reported as 120 ± 48 µM (licT 1-56 R27A (Bacillus subtilis, UniProt P39805); SPR; folded RNA).
For `CCGGGTAAATGCGCG (dsDNA; 1-methyladenine, 2-aminopurine)`, binding read “binds” (ALKBH2 56-261 (Homo sapiens, UniProt Q6NS38); 2-aminopurine fluorescence; double-stranded DNA, one strand shown).
`AAUUGCUAACCAAUGCCUGGCCCAAGGGCAUUCCCAAAGCUUA (ssRNA)` — result for binding: “no binding” (Pcbp1 97-162 (Mus musculus, UniProt P60335); EMSA; RNA).
For `GCCCTGAAAGATTATGGAATGGGATTAGGGTAAAGGAAGAGAGCATAATCTTTCAGGGC (hairpin DNA; hairpin, 16 bp stem, 27 nt loop)`, the Kd was 0.00046 ± 8e-05 µM (topA full length assumed Y177S (Escherichia coli, UniProt P06612); fluorescence anisotropy; folded DNA; together with: EDTA).
The Kd of `P1 L163E S165F` is reported as 16.2 µM (CACNA1C JBM (Mus musculus); ITC).
For `GGUUGAAGCACACGACC (structured RNA)`, binding read “no binding” (Putative PAS/PAC sensor protein full length assumed; 32P well-retention assay; folded RNA; together with: blue light).
`ATCGATAGTCTCTAGACAGCATGTCCTAGCAAGCCAGAATTCGGCAGCGT (dsDNA)` — result for binding: “no binding” (hel308; EMSA; double-stranded DNA, one strand shown).
`TCACGCGGGATCAATGTGTTCTTTCAGCTCCGGTCACGCTGACCAGGAATACCTCACTACC (dsDNA; one 5-methyl-dC opposite G)`: binding “binds” (ROS1 1-1393 (Arabidopsis thaliana, UniProt Q9SJQ6); EMSA; double-stranded DNA, one strand shown; 130 nM).
`AAGCCCGGCACCCACAACCAGCTTTCTC (dsDNA)`: binding “binds” (AP2/ERF domain-containing protein 1-442 (Vitis vinifera, UniProt A5C831); EMSA; double-stranded DNA, one strand shown).
Under binding, `AGGAAGTTTTCCGCTGGT (dsDNA)` is recorded as “binds” (NFATC4 400-744 (Homo sapiens, UniProt Q14934); EMSA; double-stranded DNA, one strand shown).
`DNA 1 CAACGTCATAGACGATTACATTGCTACATGGAGCTGTCTAGAGGATCCGA / DNA 2 GTCGGATCCTCTAGACAGCTCCATGATCACTGGCACTGGTAGAATTCGGC / DNA 3 TGCCGAATTCTACCAGTGCCAGTGAT / DNA 4 TAGCAATGTAATCGTCTATGACGTT (dsDNA; fork, leading and lagging strands)`: binding “binds” (hel308; EMSA; folded DNA).
Under binding, `GGGAGGACGAUGCGGGUUCAGAAGCGCAGCUCGUUGACCCUCCAUCGGUAGUACUCAGACGACUCGCUGAGGAUCCGAGA (stem-loop RNA; stem loop)` is recorded as “binds” (Putative PAS/PAC sensor protein full length assumed; RiboGreen well assay; folded RNA; residual dark binding, together with: blue light).
`CAAAACGAAGCTTCGCGCG (dsDNA)` — result for binding: “binds” (HSFA3 full length assumed (Arabidopsis thaliana, UniProt Q8GYY1); EMSA; double-stranded DNA, one strand shown).
Under binding, `DNA 1 CAACGTCATAGACGATTACATTGCTACATGGAGCTGTCTAGAGGATCCGA / DNA 2 GTCGGATCCTCTAGACAGCTCCATGATCACTGGCACTGGTAGAATTCGGC / DNA 3 TGCCGAATTCTACCAGTGCCAGTGATGGACATCTTTGCCCACGTTGACCC / DNA 4 TGGGTCAACGTGGGCAAAGATGTCCTAGCAATGTAATCGTCTATGACGTT (dsDNA; four-way junction, fully paired)` is recorded as “binds” (hel308; EMSA; folded DNA).
Under binding, `GGGAGGACGAUGCGGUCCCUACGGAAGACGAUCGUCUUUUCCUUGGCUAGUCAAGCAGACGACUCGCUGAGGAUCCGAGA (stem-loop RNA; stem loop)` is recorded as “binds” (Putative PAS/PAC sensor protein full length assumed; RiboGreen well assay; folded RNA; together with: blue light).
`GTATACCTGCAGCTGAGGCGAGCCGTTGGTGTGGATGGCAGGGGCAGGATTCGACTCTAGAGCGCA (ssDNA; stem-loop)` — result for binding: “no binding” (FGFR4 22-369 (Homo sapiens, UniProt P22455); EMSA; single-stranded DNA; together with: Mg2+ 5 mM).
`DNA 1 GTCGACCAGCTGAGTCGACCAGCTG / DNA 2 CAGCTGGTCGAC / DNA 3 CAGCTGGTCGAC (dsDNA; nicked, N6-methyl-dA)` — result for binding: “binds” (YTHDF1 370-559 (Homo sapiens, UniProt Q9BYJ9); pull-down; double-stranded DNA).
`GGUUGAAGGAGACGACC (structured RNA)` — result for binding: “no binding” (Putative PAS/PAC sensor protein full length assumed; 32P well-retention assay; folded RNA; together with: blue light).
`GGGUUGCGGAGCGUGCGCCUGCGAGCGGUGGUGGCCAUUUUUU (ssRNA)` — result for binding: “no binding” (DHX36; EMSA; RNA).
For `GTAGGAGGCGCGGCTGCCACGAGACGAGGTACGTGGCCCCCATGCAGCAC (dsDNA)`, binding read “binds” (BZIP23 1-357 (Oryza sativa, UniProt Q6Z312); competition; double-stranded DNA, one strand shown).
`AAUUGCUACCCAAUGCCUGGCCCAAGGGCAUUCCCAAAGCUUA (ssRNA)` — result for binding: “binds” (Pcbp1 13-75 (Mus musculus, UniProt P60335); EMSA; RNA).
`UAACACUGUCUGGUAAAGAUGG (ssRNA)` — result for binding: “no binding” (ANG 25-147 K64I (Homo sapiens, UniProt P03950); EMSA; RNA; 5-30 min, 37 °C).
`AGGGCGGTGTGGGAAGAGGGAAGAGGGGGAGG (G-quadruplex DNA (Homo sapiens))`: binding “binds” (MAZ (Homo sapiens, UniProt P56270); EMSA; folded DNA).
`DNA 1 ATCGATAGTCTCTAGACAGCATGTCCTAGCAAGCCAGAATTCGGCAGCGT / DNA 2 GACGCTGCCGAATTCTGGCTTGCTATGTAACTCTTTGCCCACGTTGACCC / DNA 3 GGACATGCTGTCTAGAGACTATCGAT (dsDNA; fork, lagging strand only)` — result for binding: “binds” (hel308 1-690 K51L (Methanothermobacter thermautotrophicus, UniProt O26901); EMSA; folded DNA).
Under binding, `GGUUAAAGCAGAUGACC (structured RNA)` is recorded as “binds” (Putative PAS/PAC sensor protein full length assumed; 32P well-retention assay; folded RNA; together with: blue light).
For `AACAGCT (ssDNA)`, binding read “binds” (YBX1; ITC; single-stranded DNA).
`GCCCTGAAAGATTATGGAATGCGATTAGGGTAAAGGAAGAGAGCATAATCTTTCAGGGC (hairpin DNA; hairpin, 16 bp stem, 27 nt loop)` gave a Kd of 0.00057 ± 0.00014 µM (topA full length assumed R173A (Escherichia coli, UniProt P06612); fluorescence anisotropy; folded DNA; together with: EDTA).
`P1 E85K` has a Kd of 22 µM (CACNA1C JBM (Mus musculus); ITC).
`AGGGUGGGCCUGGGAGGGGUGGUGGCCAUUUUUU (G-quadruplex RNA (Homo sapiens); G4)` — result for binding: “binds” (DHX36; EMSA; folded RNA).
Under binding, `GGGAGGACGAUGCGGUACAGCAGCGUUGCCAAAAAACGUCCACCUCAGGGAUUGUCAGACGACUCGCUGAGGAUCCGAGA (stem-loop RNA; stem loop)` is recorded as “binds” (Putative PAS/PAC sensor protein full length assumed; RiboGreen well assay; folded RNA; residual dark binding, together with: blue light).
`GGGUUGCGGAGGGUGGGCCUGGGA (G-quadruplex RNA (Homo sapiens); G4)` — result for binding: “binds” (DHX36; EMSA; folded RNA).
`RNA 1 GGGUAAUGCCCCUCCCCUCUCACACCUCCGGGAUCAGUGACCGGAGGGCGGUCGGGGAGGGGACACCU / RNA 2 GGGUUUAGACCGUCGUGAGAGA (dsRNA (Pyrococcus abyssi); guide:target duplex)`: binding “binds” (CBF5/NOP10 (Pyrococcus abyssi); EMSA; folded RNA).

Repeated from above:
`AAGCCCGGCACCCACAACCAGCTTTCTC (dsDNA)`: binding “binds” (AP2/ERF domain-containing protein 1-442 (Vitis vinifera, UniProt A5C831); EMSA; double-stranded DNA, one strand shown).
`TCACGCGGGATCAATGTGTTCTTTCAGCTCCGGTCACGCTGACCAGGAATACCTCACTACC (dsDNA; one 5-methyl-dC opposite G)`: binding “binds” (ROS1 1-1393 (Arabidopsis thaliana, UniProt Q9SJQ6); EMSA; double-stranded DNA, one strand shown; 130 nM).
`AAUUGCUAACCAAUGCCUGGCCCAAGGGCAUUCCCAAAGCUUA (ssRNA)` — result for binding: “no binding” (Pcbp1 97-162 (Mus musculus, UniProt P60335); EMSA; RNA).
`CGUUGAAGCAGACGACC (structured RNA)`: binding “no binding” (Putative PAS/PAC sensor protein full length assumed; 32P well-retention assay; folded RNA; together with: blue light).
For `CCGGGTAAATGCGCG (dsDNA; 1-methyladenine, 2-aminopurine)`, binding read “binds” (ALKBH2 56-261 (Homo sapiens, UniProt Q6NS38); 2-aminopurine fluorescence; double-stranded DNA, one strand shown).
